Experimental data collected from several papers.
Parts stem from different laboratories: compare values within a part only.

Block 1
Target: Histone acetyltransferase KAT6A, winged helix 2, GST fusion (KAT6A, Homo sapiens, UniProt Q92794, residues 85-181)
Method: protein binding microarray
Form: double-stranded DNA, one strand shown
Matrix: in vitro
Tested at: not given
Setting: 8-mer, flanks averaged, mean of 2 arrays, mostly near background
Reference: not given
Direction: higher = stronger binding
Construct (chain): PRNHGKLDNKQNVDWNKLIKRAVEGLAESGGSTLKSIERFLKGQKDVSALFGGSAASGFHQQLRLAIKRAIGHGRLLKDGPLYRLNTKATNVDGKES
For `AAGTGACA`, the E-score was 0.0814.
`ACGCAGTA` has an E-score of 0.103.
With `CAAATCTG` the E-score was -0.0162.
`ATGAAAAT` gave an E-score of -0.0383.

Block 2
Target: Prothrombin, mature alpha-thrombin (F2, Homo sapiens, UniProt P00734)
Method: aptamer microarray, sandwich
Form: DNA with 2'F-ANA
Matrix: in vitro
Tested at: 200 nM
Setting: whole 15-mer aptamer, many near background
Added: Cy3 exosite-II aptamer, 400 nM
Direction: higher = stronger binding
`GGTTGGTGTGGTTGG (2'F-ANA at 1 3 4 5 8 13 14)` — result for “mean fluorescence intensity”: 43.7 a.u.
`GGTTGGTGTGGTTGG (2'F-ANA at 1 2 4 8 11 14 15)`: “mean fluorescence intensity” 105 a.u.
`GGTTGGTGTGGTTGG (2'F-ANA at 1 2 4 8 9 10 11 14)`: “mean fluorescence intensity” 48.6 a.u.

Block 3
Target: Centromere-binding protein 1, full length, N-terminal tag (CBF1, Saccharomyces cerevisiae, UniProt P17106, residues 1-351)
Chain of UniProt P17106 (whole entry, looked up): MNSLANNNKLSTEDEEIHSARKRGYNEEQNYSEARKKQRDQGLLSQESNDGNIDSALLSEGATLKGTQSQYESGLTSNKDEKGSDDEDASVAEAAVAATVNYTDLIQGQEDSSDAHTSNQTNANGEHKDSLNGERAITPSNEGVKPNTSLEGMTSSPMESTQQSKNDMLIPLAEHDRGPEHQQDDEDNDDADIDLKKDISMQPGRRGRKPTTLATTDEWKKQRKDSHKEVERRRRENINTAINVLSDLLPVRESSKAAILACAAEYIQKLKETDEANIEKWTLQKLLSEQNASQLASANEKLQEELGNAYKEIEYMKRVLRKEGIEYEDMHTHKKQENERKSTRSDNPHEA
Method: protein-binding microarray
Form: double-stranded DNA, one strand shown
Matrix: in vitro
Tested at: 0.8 µM
Setting: whole 60-bp probe, no competitor
Direction: higher = stronger binding
`GAATTCGTGAAACGTGACATGTTGGGTACCCGCTAGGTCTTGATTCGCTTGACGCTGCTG` has a fluorescence intensity of 6020 a.u.
The fluorescence intensity of `GAATATATAAAGTATGTCATGAGTAAACTAGTTTAGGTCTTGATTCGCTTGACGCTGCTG` is reported as 539 a.u.
`CCTAACTACTATAATTCAGTTGAATAGCTTCGTACAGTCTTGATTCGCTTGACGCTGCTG` has a fluorescence intensity of 485 a.u.
With `GAAAAATCTTGCTGTGACCCAAACAAGAAAGAGTAGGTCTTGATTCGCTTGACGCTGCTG` the fluorescence intensity was 591 a.u.
`GAATATTTTTATCATCACCATCATTTTGAAATCTAGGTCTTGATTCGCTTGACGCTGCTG` gave a fluorescence intensity of 547 a.u.

Mixed results
`PhoQ, residues 284 288 289 292 302 303 ALSMDL` has a fold induction of 7.49 (PhoP, residues 12 14 15 18 19 IQSYL (Escherichia coli, UniProt P23836); Sort-seq, measured: YFP reporter; E. coli; PhoQ-PhoP variant library, added: 10 µM Mg2+; reference: high Mg2+ state, higher = stronger signaling).

For quick reference, copied from above (block 2):
`GGTTGGTGTGGTTGG (2'F-ANA at 1 2 4 8 9 10 11 14)`: “mean fluorescence intensity” 48.6 a.u.
`GGTTGGTGTGGTTGG (2'F-ANA at 1 2 4 8 11 14 15)`: “mean fluorescence intensity” 105 a.u.
